Published values of several laboratories.
Each line is one published result; not all experiments were run side by side. ± marks the error that the study gave.
UniProt O60656, sequence (whole entry, looked up): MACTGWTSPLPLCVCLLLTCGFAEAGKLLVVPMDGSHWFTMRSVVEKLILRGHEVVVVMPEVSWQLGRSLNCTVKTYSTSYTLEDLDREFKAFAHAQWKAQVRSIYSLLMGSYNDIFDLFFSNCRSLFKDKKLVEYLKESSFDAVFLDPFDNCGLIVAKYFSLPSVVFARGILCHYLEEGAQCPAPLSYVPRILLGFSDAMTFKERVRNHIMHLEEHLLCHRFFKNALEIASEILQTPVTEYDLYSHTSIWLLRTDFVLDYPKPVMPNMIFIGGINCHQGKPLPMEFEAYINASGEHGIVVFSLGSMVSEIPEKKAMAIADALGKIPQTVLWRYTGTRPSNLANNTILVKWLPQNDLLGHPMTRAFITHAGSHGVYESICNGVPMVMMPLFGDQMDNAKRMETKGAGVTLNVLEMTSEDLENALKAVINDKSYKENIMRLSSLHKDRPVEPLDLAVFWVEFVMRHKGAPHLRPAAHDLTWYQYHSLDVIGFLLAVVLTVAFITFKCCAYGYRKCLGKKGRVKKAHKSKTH

With `Insulin human` the concentration was 180 ± 62 pg/mg tissue (ELISA; rat, Sprague-Dawley, male, olfactory bulb; intranasal, 20 µg per nostril, 15 min).
`teriparatide` — result for “elimination rate constant”: 1.11 ± 0.331 h⁻¹ (ELISA; healthy women; sc, 20 µg single dose, reference product, arithmetic mean).
With `insulin` the Cmax was 4.2 ± 6550 µg/mL (HPLC-UV; diabetic rat, plasma; oral, 40 IU/kg).
With `COc1cccc2c1C(=O)c1c(O)c3c(c(O)c1C2=O)C[C@@](O)(C(=O)CO)C[C@@H]3O[C@H]1C[C@H](NC(=O)[C@@H]2CCCN2C(=O)CN)[C@H](O)[C@H](C)O1` the AUC was 72.2 µM·h (mouse, E0771 tumour-bearing, liver; intravenous, 92 µmol/kg PhAc-ALGP-Dox).
For `insulin degludec`, the AUC(13-17 h) was 0.0104 µM·h (human end-stage renal disease, serum; subcutaneous, 0.4 U/kg, dosed after hemodialysis).
With `UGT1A9 (Homo sapiens, UniProt O60656)` the Vmax was 0.00456 µmol/min/mg (CCCOC(=O)c1ccc(O)cc1; steady-state kinetics; pH 7.4, 37 °C).
The tissue uptake of `CC(C)[C@H](NC(=O)[C@@H]1CCCN1C(=O)[C@H](CCCNC(=N)N)NC(=O)[C@H](CS)NC(=O)[C@H](Cc1c[nH]c2ccccc12)NC(=O)[C@H](CCCNC(=N)N)NC(=O)[C@@H](Cc1ccccc1)NC(=O)[C@H](Cc1c[nH]cn1)NC(=O)[C@H](CCC(=O)O)NC(=O)[C@H](CS)NC(=O)[C@H](CS)NC(=O)[C@H](CCCCN)NC(=O)[C@@H]1CC(=O)N[C@@H](CCCNC(=N)N)C(=O)N[C@@H](C)C(=O)N[C@@H](CC(=O)O)C(=O)N[C@H](Cc2ccc(O)cc2)C(=O)N1)C(N)=O` [technetium-99m labelled] is reported as 85.6 ± 1.21 %ID (C57 mice, bladder; iv, 0.037 MBq, 24 h).
With `insulin aspart` the AUC(0-t) was 7.79 ng·h/mL (UPLC-MS/MS; human, healthy subjects, plasma; subcutaneous, 0.2 U/kg single dose, 6 h, euglycaemic clamp).
`rnpA F107W (Bacillus subtilis)` has a pKa of 5.76 (NMR, refers to: His105; 25 °C, 20 ± 1 mM, unfolded state, no sulfate, numbering of the source).

Some of these lines once more:
With `UGT1A9 (Homo sapiens, UniProt O60656)` the Vmax was 0.00456 µmol/min/mg (CCCOC(=O)c1ccc(O)cc1; steady-state kinetics; pH 7.4, 37 °C).
